# Experimental data of several laboratories.
# Protocols differ between the studies behind these lines. Several values in a cell are separate wells, animals, samples, runs or records. ± marks the error that the study gave.
# Chain of UniProt Q9UBS0 (whole entry, looked up): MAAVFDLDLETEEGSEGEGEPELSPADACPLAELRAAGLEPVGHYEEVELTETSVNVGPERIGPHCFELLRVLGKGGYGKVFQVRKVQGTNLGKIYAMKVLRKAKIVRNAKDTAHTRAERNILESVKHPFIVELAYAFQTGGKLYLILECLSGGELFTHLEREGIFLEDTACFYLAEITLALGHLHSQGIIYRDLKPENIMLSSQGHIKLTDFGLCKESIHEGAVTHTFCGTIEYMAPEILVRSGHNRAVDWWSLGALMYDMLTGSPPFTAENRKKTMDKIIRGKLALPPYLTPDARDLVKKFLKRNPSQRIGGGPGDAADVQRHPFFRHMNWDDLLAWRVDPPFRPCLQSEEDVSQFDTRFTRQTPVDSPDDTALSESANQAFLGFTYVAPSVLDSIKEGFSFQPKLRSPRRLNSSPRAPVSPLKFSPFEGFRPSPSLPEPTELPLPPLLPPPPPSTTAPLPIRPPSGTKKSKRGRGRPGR
# Chain of UniProt Q9BZL6 (whole entry, looked up): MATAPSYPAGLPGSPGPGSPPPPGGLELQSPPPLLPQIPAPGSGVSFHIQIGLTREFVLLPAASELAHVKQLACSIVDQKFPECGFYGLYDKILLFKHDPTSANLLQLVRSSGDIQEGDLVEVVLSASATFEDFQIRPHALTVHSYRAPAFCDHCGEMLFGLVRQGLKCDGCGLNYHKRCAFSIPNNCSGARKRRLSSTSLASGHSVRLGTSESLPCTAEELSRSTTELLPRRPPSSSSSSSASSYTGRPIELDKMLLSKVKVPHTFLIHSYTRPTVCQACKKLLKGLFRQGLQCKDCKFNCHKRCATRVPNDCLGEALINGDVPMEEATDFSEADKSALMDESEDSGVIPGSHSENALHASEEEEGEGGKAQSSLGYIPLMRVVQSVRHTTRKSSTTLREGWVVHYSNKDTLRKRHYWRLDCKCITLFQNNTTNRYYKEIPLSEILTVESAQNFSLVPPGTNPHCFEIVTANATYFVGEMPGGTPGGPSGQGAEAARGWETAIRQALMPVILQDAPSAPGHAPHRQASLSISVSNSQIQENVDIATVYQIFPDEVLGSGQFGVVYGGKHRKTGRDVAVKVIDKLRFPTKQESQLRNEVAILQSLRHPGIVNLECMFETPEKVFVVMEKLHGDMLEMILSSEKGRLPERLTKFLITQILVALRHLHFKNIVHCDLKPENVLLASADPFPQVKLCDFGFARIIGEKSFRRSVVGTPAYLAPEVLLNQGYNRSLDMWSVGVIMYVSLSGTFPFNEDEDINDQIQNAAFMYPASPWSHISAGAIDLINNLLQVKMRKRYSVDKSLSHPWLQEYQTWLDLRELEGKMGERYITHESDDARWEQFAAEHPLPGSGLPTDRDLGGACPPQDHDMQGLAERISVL
Structure (SMILES),tested on,test,test system,setting,scale,endpoint,result
C[C@@H](N)[C@H](O)CCCCCCCC(=O)CCCCCCCCCCCCCC[C@@H](O[C@@H]1O[C@H](CO)[C@@H](O)[C@H](O)[C@H]1O)[C@@H](N)CO,Acinetobacter baumannii,resazurin,ATCC 19606,50 µM,,growth inhibition,93 ± 1.12%
CC[C@H](C)CCCCC(=O)N[C@@H](CCN)C(=O)N[C@H](C(=O)N[C@@H](CCN)C(=O)N[C@H]1CCNC(=O)[C@H]([C@@H](C)O)NC(=O)[C@H](CCN)NC(=O)[C@H](CCN)NC(=O)[C@H](CC(C)C)NC(=O)[C@@H](CC(C)C)NC(=O)[C@H](CCN)NC1=O)[C@@H](C)O,Escherichia coli,daily serial passaging,ATCC 8739,"highest sub-MIC, 14 days",baseline: initial MIC,MIC fold change,1.68
CC(C)(C)C(=O)OCOP(=O)(OCOC(=O)C(C)(C)C)C1CCCN(O)C1=O (stereo not shown),HCC 2998,,,,,log TGI,-5.25 log M
FC(F)(F)c1cccc(CNc2nc(NC3CCN(Cc4ccccc4)CC3)c3nc[nH]c3n2)c1,Cryptococcus neoformans,"RNA-seq, refers to: PLC2 (CNAG_02968)",,"48 µg/mL, 3 h",baseline: untreated,mRNA fold change,1.15
C=CCN1C(=O)C(CC=C)(C(=O)OCC)Oc2cc(F)ccc21 (stereo not shown),Amaranthus retroflexus,,greenhouse,"postemergence, 150 g ai/ha, 21 days",,fresh weight inhibition,52.9 ± 4.57%
COc1ccccc1-c1n[nH]c2nc(N[C@H]3CC[C@H](NS(=O)(=O)CC(C)C)CC3)ncc12,,"bead binding, competition bead pull-down, refers to: LINJ.28.2610",Leishmania donovani extract,10 µM,baseline: vehicle,relative abundance,0.99
CN(CCO)CCO.O=C(O)C(Cl)Cl,Amaranthus retroflexus,herbicidal activity,,"15 mg/mL, 21 days, pre-emergence greenhouse",,inhibition,0%
COc1ccc(C2=[N+]([O-])c3ccccc3N3CC(C)(C)CN=C23)cc1,Bacteroides fragilis,,,,,MIC90,0.5 µg/mL
CCc1nn(C)c2nc(-c3ccc(C(=O)O)cc3)nc(NCc3ccccc3)c12,Cryptosporidium parvum,,HCT-8,"12 x EC90, 0 h",baseline: DMSO control,parasite number,109% and 93.3% and 101% and 96.8%
CS(C)(=O)=Nc1ccc(-c2ccc(-c3nc4cc(O[C@@H]5CO[C@H]6[C@@H]5OC[C@H]6O)[nH]c4cc3F)cc2)cc1,"PRKD2 (Homo sapiens, UniProt Q9BZL6)","enzyme activity, inhibitor",,10 µM,,inhibition,1%
CC(C)[C@H]1NC(=O)CNC(=O)[C@H](CO)NC(=O)[C@@H](Cc2c(-c3ccc(-c4ccc5ccccc5c4)cc3)[nH]c3ccccc23)NC(=O)[C@@H](CO)NC(=O)[C@@H](C(C)C)NC(=O)[C@H](Cc2ccccc2)NC1=O,Vibrio vulnificus,broth dilution,,,,MIC90,> 50 µM
O=C(CCN(CCC(=O)N[C@@H](Cc1c[nH]c2ccccc12)C(=O)O)C(=O)CCN(CCC(=O)N(CCC(=O)N[C@@H](Cc1c[nH]c2ccccc12)C(=O)O)CCC(=O)N[C@@H](Cc1c[nH]c2ccccc12)C(=O)O)C(=O)c1cc(C(=O)N(CCC(=O)N(CCC(=O)N[C@@H](Cc2c[nH]c3ccccc23)C(=O)O)CCC(=O)N[C@@H](Cc2c[nH]c3ccccc23)C(=O)O)CCC(=O)N(CCC(=O)N[C@@H](Cc2c[nH]c3ccccc23)C(=O)O)CCC(=O)N[C@@H](Cc2c[nH]c3ccccc23)C(=O)O)cc(C(=O)N(CCC(=O)N(CCC(=O)N[C@@H](Cc2c[nH]c3ccccc23)C(=O)O)CCC(=O)N[C@@H](Cc2c[nH]c3ccccc23)C(=O)O)CCC(=O)N(CCC(=O)N[C@@H](Cc2c[nH]c3ccccc23)C(=O)O)CCC(=O)N[C@@H](Cc2c[nH]c3ccccc23)C(=O)O)c1)N[C@@H](Cc1c[nH]c2ccccc12)C(=O)O,human adenovirus 2,viral replication,HEL cells,,,EC50,6.9 ± 0.14 µM
OB(O)c1ccc(C(F)(F)F)s1,Staphylococcus aureus,crystal violet,USA300 wild type,5 µM,baseline: wild type untreated,biofilm formation,48.5% and 38.4% and 40.9%
COc1ccccc1-c1n[nH]c2nc(NC3CCN(C(=O)Cc4ccc(F)cc4F)CC3)ncc12,,"bead binding, competition bead pull-down, refers to: LINJ.36.6710",Leishmania donovani extract,10 µM,baseline: vehicle,relative abundance,0.8
Cc1cc(C(=O)Nc2nc3cccc(C)c3n2[C@H]2CCCCN(C(=O)/C=C/CN(C)C)C2)ccn1,Trypanosoma brucei,,2T1 parental line,concentration not given,,parasite density,780000 parasites/mL and 860000 parasites/mL and 782000 parasites/mL
COc1ccc(C2=[N+]([O-])c3ccccc3N3CCCN=C23)cc1,Bacteroides fragilis,,,,,MIC90,2 µg/mL
CC(C)[C@H]1NC(=O)C[C@H]2/C=C/CCSSC[C@@H](NC1=O)C(=O)N[C@H](Cc1cccc3ccccc13)C(=O)NCC(=O)O2,"RPS6KB2 (Homo sapiens, UniProt Q9UBS0)","enzyme activity, inhibitor",,10 µM,,inhibition,4.1%
CCOC(=O)C1(CC=C(C)C)Oc2cc(F)ccc2N(CC=C(C)C)C1=O (stereo not shown),Amaranthus retroflexus,"fresh weight, greenhouse postemergence",,"postemergence, 150 g ai/ha, 21 days",,inhibition,64.2 ± 2.77%
O=C1NC2(CC2)COc2ncc(F)cc2[C@H]2COCCN2c2ccn3ncc1c3n2,,,"Sprague-Dawley rat, female, serum","oral, 10 mg/kg/day, end of treatment, 4-week subacute toxicity",,serum triglycerides,0.46 ± 0.18 mmol/L

# Excerpt of the above:
Structure (SMILES),tested on,test,test system,setting,scale,endpoint,result
CCOC(=O)C1(CC=C(C)C)Oc2cc(F)ccc2N(CC=C(C)C)C1=O (stereo not shown),Amaranthus retroflexus,"fresh weight, greenhouse postemergence",,"postemergence, 150 g ai/ha, 21 days",,inhibition,64.2 ± 2.77%
FC(F)(F)c1cccc(CNc2nc(NC3CCN(Cc4ccccc4)CC3)c3nc[nH]c3n2)c1,Cryptococcus neoformans,"RNA-seq, refers to: PLC2 (CNAG_02968)",,"48 µg/mL, 3 h",baseline: untreated,mRNA fold change,1.15
